Measurements pooled from the literature.
Lines come from different studies, so protocols differ. Several values in a cell are separate wells, animals, samples, runs or records. Numbers after ± are the reported error.
Organism: Salmonella typhimurium

Fc1ccc(C2=CCNCC2)cc1  induction factor (genotoxicity, SOS/umu test; TA1535/pSK1002; 0.004 mg/mL, 4 h, without S9, full range): 1.3
COS(C)(=O)=O  revertant colonies (Ames test; TA100; 0.2 µg/well, 48 h, without S9): 512 colonies/well and 560 colonies/well and 480 colonies/well
O=C(O)CCCOc1ccc(F)cc1-c1cc(-c2ccccc2C(F)(F)F)n(-c2ccccc2)n1  growth-inhibiting concentration (Ames test; TA100; concentration not given, without S9 metabolic activation): ≥ 1250 µg/plate
O=NN1CCN(C2CCCC2)CC1  revertant colonies per plate (mutagenicity, Ames plate incorporation; TA1537; 500 µg/plate, 3 d, without S9, methanol): 11.7 ± 2
OC(CCN1CC=C(c2ccc(F)cc2)CC1)c1ccc(F)c2ccccc12 (stereo not shown)  induction factor (genotoxicity, SOS/umu test; TA1535/pSK1002; 0.125 mg/mL, 4 h, with S9, lower range): 0.9
O=[N+]([O-])c1ccc2c(c1)Cc1ccccc1-2  revertant ratio (Ames test, initial; TA98; 1.0 µg/plate; relative to: solvent control): 7
COc1cccc(-c2n[nH]c(SCc3ccccn3)n2)c1OC  revertant colonies per plate (Ames test, preincubation; TA98; 0.25 mg/plate, without S9): 19
Nc1ccc2cc3ccccc3cc2c1  revertant ratio (Ames test, initial; TA100; 2.0 µg/plate, added: rat liver S9; relative to: solvent control): 4.7
O=[N+]([O-])c1ccc(N2CCC(NCCC(O)c3ccc(F)c4ccccc34)CC2)c(C(F)(F)F)c1 (stereo not shown)  induction factor (genotoxicity, SOS/umu test; TA1535/pSK1002; 0.016 mg/mL, 4 h, with S9, full range): 1
CC(=O)N1CCC(C(=O)N2CCN3C(=O)c4cc(-c5ccccc5)ccc4NC(=O)C3C2)CC1 (stereo not shown)  revertants per plate (TA1537; 1.58 µg/plate, added: rat liver S9): 29
O=[N+]([O-])c1ccc(N2CCN(CCC(O)c3ccc(F)cc3)CC2)c(C(F)(F)F)c1 (stereo not shown)  induction factor (genotoxicity, SOS/umu test; TA1535/pSK1002; 0.016 mg/mL, 4 h, with S9, lower range): 0.8
Nc1ccc2cc3ccccc3cc2c1  mean revertants per plate (TA1537; 5 µg/plate, added: rat liver S9): 356 revertants/plate
CN(N=O)c1ccc(F)cc1  revertant colonies per plate (mutagenicity, Ames plate incorporation; TA1537; 5000 µg/plate, 3 d, without S9, methanol): 7.7 ± 2
O=[N+]([O-])c1ccc(NC2CCNCC2)c(C(F)(F)F)c1  induction factor (SOS response, SOS/umu test; TA1535/pSK1002, TGA medium; 0.25 mg/mL, 4 h, added: 10% rat liver S9; relative to: untreated): 0.8
CNC(=O)c1c(N(C)N=O)ncn1C  revertant colonies per plate (plate incorporation; TA98, water; 500 µg/plate, without S9): 36.3 ± 6
Cc1cc(C(=O)NC(C)(C)COc2cccc3c2C(N)=NS(=O)(=O)N3)cc(C)n1  revertant ratio (Ames test, initial; TA98; 5000 µg/plate, added: rat liver S9; relative to: solvent control): 1.4

A few entries again:
O=NN1CCN(C2CCCC2)CC1  revertant colonies per plate (mutagenicity, Ames plate incorporation; TA1537; 500 µg/plate, 3 d, without S9, methanol): 11.7 ± 2
OC(CCN1CC=C(c2ccc(F)cc2)CC1)c1ccc(F)c2ccccc12 (stereo not shown)  induction factor (genotoxicity, SOS/umu test; TA1535/pSK1002; 0.125 mg/mL, 4 h, with S9, lower range): 0.9
